Assay results from different studies.
Each numbered part is a random draw from the data of one study; scales do not carry over between parts.

Block 1
Target: RNA binding protein fox-1 homolog 2, RRM domain, GST-SBP tag (RBFOX2, Homo sapiens, UniProt O43251-10, residues 100-194)
Technique: RNA Bind-n-Seq
Form: RNA
Matrix: in vitro
Tested at: 365 nM
Notes: natural RNA segment, single round, ends assumed
Reference: no-protein control
Reading: higher = stronger binding
Measurement: RBNS enrichment (R)
Shared flanks, not repeated: GGGAGUUCUACAGUCCGACGAUC … UGGAAUUCUCGGGUGCCAA
Target sequence (chain): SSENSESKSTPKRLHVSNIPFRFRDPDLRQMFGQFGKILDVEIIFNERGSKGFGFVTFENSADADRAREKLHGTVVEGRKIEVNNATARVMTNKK
GGACAAGAACACUUGAACACACAGAACGGAGACUAUGCCUAGUGUAGGUUUUGCAGUUAAUGGCCUGAAUGCUAGAUAUCAGAUCACCUGUUUCGCUGUGGGAACAGGAG: 0.728
UUGCCUACCUCCUUGCAUGGACAGGGGGAUGAAUAUUUACUUUCCCACCUCCUUGCUUUUUCUUUCACUGAUACCACUGAAUGGAACUGGUGCUGUGACUCCUGCUGCUG: 1.89
AGAGAGAUGCACUAACAACUGGGGAUAGGGAUGGGGUCAGGGGGAGCCCAAGAUGGUGAUCUGCCCGAGACUCCCAGAGGGUAAUGCCACUCCCACAAUCUCAGGCCUGG: 0.64
AUGUGGUAUGUCACUGCUGAAGCCUUUUCCUGUUUUAGUAAUAUCUUAGGCACUAUUGUCUUUUGUCUUCCAGAGUAACAUAUCUGGGCCCACCUUUCUUGCACACUGUG: 1.45
GGAGCAUUUUUUUACAAUUUGGAUCUCUGCCAGUAUUGUUAAAAUUUUAUUAAAAUCAUCCAGCACCAAGACGUGUUUGCUUUUAUAUUUAUUCUAUAUGCCCAGCUCUG: 0.372
GUCUUUGAUUGGAGAGAGUAACUUUUUAAUUCUGUUGUUUUGCAGUUUGGCUCUGUAGGAGUGAGUGGCGAUUCAAAGAUGCCGGCGUCCCGCAGUGUGCGGUUCGUGCC: 0.938
UCCGCUACAGCCAUACCAGACAGGAACCAAGUGUCCCCGUGUUGGCACCGCUUCCUGGUCUAUUUGCAGAGGUGGUACCCCUCGCUGCCUCCAGGAGAGAGCGCUCCAGG: 0.333
UUUUCUUUCUCUUUUUUUUUUUUGUAUAUUAUUGUUUACAAUAAAUAUACAUUGCAUUAAAAAGAAAGUGGCCCUGUGGAUUUAUUCACCCAGUUCUCCUGUUGGAUGAU: 0.471
ACAGAUGAUCUGUUCACUUGAAGGUGAUUUUUAUCUUGUAGUCAGUGUUACAAGAAAAGGCUGGAAGCAUUUCUACUAAGCGAGGCCCUUUACAGUGACCUCCAGGCAAC: 0.247
AUGGUUAAAGAGAAGGCUUUCAAGAACUUUGGAAUAAGAGGCCUGUUUUUAAAAAGGAACUGCCGCAAUCUCUGAAAGACUUCCAAAGAACGUUAGAGCACAGUACAUAC: 0.368
UAUCGUUUUCUGGUGAUGUUGUGCUAACAAUAAGAAGUACACGGGUUUAUUUCUGUGGCCUGAGAAGGAAGGGACCUCCACGACAGGUGGGCUGGGUGCGAUCGCCGGCU: 0.471
UCGUGUAGCGUACCUAAAAGACUAUUCUAUUAUGGGUGUCCCCACUUUCUUGGUUUGGUCACCCCGAUCCCCCGGUCUUCUGCUGUAUCUAGAACAGUGACUAUAAAUGA: 0.31

Block 2
Target: Histone acetyltransferase KAT6A, both winged helices, GST fusion (KAT6A, Homo sapiens, UniProt Q92794, residues 1-181)
Technique: protein binding microarray
Form: double-stranded DNA, one strand shown
Matrix: in vitro
Tested at: not given
Notes: 8-mer, flanks averaged, mean of 2 arrays, mostly near background
Reference: not given
Reading: higher = stronger binding
Measurement: E-score
Construct (chain): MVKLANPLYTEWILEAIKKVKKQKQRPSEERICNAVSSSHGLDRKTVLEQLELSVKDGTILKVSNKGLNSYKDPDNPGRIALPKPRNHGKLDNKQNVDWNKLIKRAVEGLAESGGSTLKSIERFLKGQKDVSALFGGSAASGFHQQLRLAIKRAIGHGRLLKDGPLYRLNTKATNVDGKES
AACTTGCG: 0.157
AGGTTACG: 0.0278
GGGATGTA: 0.0708
GAGTAACC: 0.0341
CCTACGAC: -0.168
CGTCGTCC: 0.16
CACTGTGA: -0.0317
CAAGTCTC: -0.216
GCTATAGC: 0.137
AAAAAAAA: 0.00336
CTCGACGC: 0.11
GAATCGAC: -0.00575
CTCTACTC: -0.146
TGTCATAA: -0.0696
GCAATTTA: 0.0667
CTTCGTTC: -0.236

Block 3
Target: Sal-like protein 4, full length isoform B (SALL4, Homo sapiens, UniProt Q9UJQ4-2, residues 1-616)
Technique: universal PBM
Form: double-stranded DNA, one strand shown
Matrix: in vitro
Tested at: not given
Notes: 8-mer, flanks averaged, mean of replicates
Reading: higher = stronger binding
Measurement: E-score
Construct (chain): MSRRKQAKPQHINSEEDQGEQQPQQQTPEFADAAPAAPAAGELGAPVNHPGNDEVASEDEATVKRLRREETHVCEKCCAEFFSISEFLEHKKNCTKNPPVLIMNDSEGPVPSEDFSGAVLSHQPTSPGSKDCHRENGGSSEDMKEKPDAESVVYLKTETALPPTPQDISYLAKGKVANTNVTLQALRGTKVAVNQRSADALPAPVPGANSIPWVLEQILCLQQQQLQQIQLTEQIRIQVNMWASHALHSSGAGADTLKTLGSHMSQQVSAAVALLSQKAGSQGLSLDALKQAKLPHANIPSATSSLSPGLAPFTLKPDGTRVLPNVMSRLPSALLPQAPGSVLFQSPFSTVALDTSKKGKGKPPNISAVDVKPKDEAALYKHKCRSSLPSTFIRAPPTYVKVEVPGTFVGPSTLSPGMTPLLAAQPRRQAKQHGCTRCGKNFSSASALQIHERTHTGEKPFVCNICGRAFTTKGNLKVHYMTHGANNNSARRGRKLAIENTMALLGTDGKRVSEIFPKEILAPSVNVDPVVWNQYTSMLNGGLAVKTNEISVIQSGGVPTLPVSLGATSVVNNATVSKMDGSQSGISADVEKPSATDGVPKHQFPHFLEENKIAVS
ACTACGAA: 0.065
AGGTGACT: 0.0266
ACCTGTAG: -0.0916
GCATACAC: 0.0925
ATTACCCC: 0.0585
GGAGCATA: 0.00755
CGGATAGC: -0.146
ATTACTTG: 0.206
CTCGGTAA: -0.0679
CTTTGCGA: -0.127
GGCACGAC: -0.181
CATCGCCC: -0.274
CTATTGCA: 0.196
ATCGCCAT: 0.0241
AAATCTCA: 0.113
AACGGGGT: -0.306
AGTTGAGC: -0.154
GATCGTAC: -0.0404
CAGATAGA: 0.0026
GCGGTAGC: -0.232

Further values, each from its own experiment
Read-out: peptide binding
Form: peptide
Reading: direction not given
LLRRLQDVANDRG — enrichment score (Saccharomyces cerevisiae; yeast competitive growth sequencing; cyclin F-Cln2 fusion; library 2): -0.603
GAPLKKLFTSTGL — enrichment score (Cln2 (Saccharomyces cerevisiae); competitive growth sequencing; Saccharomyces cerevisiae, unfused Cln2 strain; mutational scanning library 1): -1.33
GFGFLLFICKLTF — enrichment score (human cyclin A2; competitive growth sequencing; Saccharomyces cerevisiae, cyclin A2-Cln2 fusion strain; mutational scanning library 2): 0.797
